{"data": "Results of several laboratories", "T1": "Nedd4 HECT domain; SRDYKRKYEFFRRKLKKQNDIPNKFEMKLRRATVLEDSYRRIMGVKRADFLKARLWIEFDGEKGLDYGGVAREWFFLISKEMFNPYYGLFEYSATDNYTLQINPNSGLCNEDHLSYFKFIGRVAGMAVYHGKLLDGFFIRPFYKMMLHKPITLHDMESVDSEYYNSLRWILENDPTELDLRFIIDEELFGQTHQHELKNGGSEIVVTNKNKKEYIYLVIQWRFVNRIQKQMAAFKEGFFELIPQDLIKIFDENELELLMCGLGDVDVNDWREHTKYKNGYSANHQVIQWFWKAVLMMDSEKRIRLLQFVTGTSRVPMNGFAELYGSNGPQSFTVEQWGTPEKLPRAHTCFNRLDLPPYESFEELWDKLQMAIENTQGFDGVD", "B1": "Tiam1 393-1591 (Mus musculus, UniProt Q60610); sequence looked up; chain MSTTNSESLEEAGSAHSDEQSSGTLSSPGQSDILLTAAQGTVRKAGALAVKNFLVHKKNKKVESATRRKWKHYWVSLKGCTLFFYETDGRSGIDHNSVPKHAVWVENSIVQAVPEHPKKDFVFCLSNSLGDAFLFQTTSQTELENWITAIHSACAAAVARHHHKEDTLRLLKSEIKKLEQKIDMDEKMKKMGEMQLSSVTDSKKKKTILDQIFVWEQNLEQFQMDLFRFRCYLASLQGGELPNPKRLLAFASRPTKVAMGRLGIFSVSSFHALVAARTGEIGVRRRTQAMSRSASKRRSRFSSLWGLDTTSKKKQGRPTINQVFGEGTDAVKRSLEGIFDDTVPDGKREKEVVLPSVHQHNPDCDIWVHEYFTPSWFCLPNNQPALTVVRPGDTARDTLELICKTHQLDHSAHYLRLKFLMENRVQFYIPQPEEDIYELLYKEIEICPKVTQNIHIEKSDAAADNYGFLLSSVDEDGIRRLYVNSVKETGLASKKGLKAGDEILEINNRAAGTLNSSMLKDFLSQPSLGLLVRTYPEPEGGVELLENPPHRVDGPVDLGESPLAFLTSNPGHSLSSEQGSSAETAPEEGEGPDLESSDETDHSSKSTEQVAAFCRSLHEMSPSDSSPSPQDATSPQLATTRQLSDADKLRKVICELLETERTYVKDLNCLMERYLKPLQKETFLTQDELDVLFGNLTEMVEFQVEFLKTLEDGVRLVPDLEKLEKVDQFKKVLFSLGGSFLYYADRFKLYSAFCASHTKVPKVLVKAKTDTAFKAFLDAQNPRQQHSSTLESYLIKPIQRVLKYPLLLRELFALTDAESEEHYHLDVAIKTMNKVASHINEMQKIHEEFGAVFDQLIAEQTGEKKEVADLSMGDLLLHTSVIWLNPPASLGKWKKEPELAAFVFKTAVVLVYKDGSKQKKKLVGSHRLSIYEEWDPFRFRHMIPTEALQVRALPSADAEANAVCEIVHVKSESEGRPERVFHLCCSSPESRKDFLKSVHSILRDKHRRQLLKTESLPSAQQYVPFGGKRLCALKGARPAMSRAVSAPSKSLGRRRRRLARNRFTIDSDAISASSPEKEPQQPAGGGDTDRWVEEQFDLAQYEEQDDIKETDILSDDDEFCESLKGASVDRDLQEQLQAASISQRARGRRTLDSHASRMTQLKKQAALSGINGGLESASEEVIWVRREDFAPSRKLNTEI", "B2": "tatA I15C (Escherichia coli, UniProt P69428); MTSL spin label Cys15; sequence looked up; chain MGGISIWQLLIIAVCVVLLFGTKKLGSIGSDLGASIKGFKKAMSDDEPKQDKTSQDADFTAKTIADKQADTNQEQAKTEDAKRHDKEQV", "B3": "S100A8 1-93 C42S (Homo sapiens, UniProt P05109); chain MLTELEKALNSIIDVYHKYSLIKGNFHAVYRDDLKKLLETESPQYIRKKGADVWFKELDINTDGAVNFQEFLILVIKMGVAAHKKSHEESHKE", "B4": "RNase B unfolded, reduced (UniProt P61823); N-glycan, DyLight 680 label; sequence looked up; chain KETAAAKFERQHMDSSTSAASSSNYCNQMMKSRNLTKDRCKPVNTFVHESLADVQAVCSQKNVACKNGQTNCYQSYSTMSITDCRETGSSKYPNCAYKTTQANKHIIVACEGNPYVPVHFDASV", "B5": "SPT15 (Saccharomyces cerevisiae, UniProt P13393); fluorescein label; sequence looked up; chain MADEERLKEFKEANKIVFDPNTRQVWENQNRDGTKPATTFQSEEDIKRAAPESEKDTSATSGIVPTLQNIVATVTLGCRLDLKTVALHARNAEYNPKRFAAVIMRIREPKTTALIFASGKMVVTGAKSEDDSKLASRKYARIIQKIGFAAKFTDFKIQNIVGSCDVKFPIRLEGLAFSHGTFSSYEPELFPGLIYRMVKPKIVLLIFVSGKIVLTGAKQREEIYQAFEAIYPVLSEFRKM", "B6": "TIF4631 572-853 K590R (Saccharomyces cerevisiae, UniProt P39935); sequence looked up; chain LVPSANRWVPKFKSKKTERKLAPDGKTELLDKDEVERKMKSLLNKLTLEMFDAISSEILAIANISVWETNGETLKAVIEQIFLKACDEPHWSSMYAQLCGKVVKELNPDITDETNEGKTGPKLVLHYLVARCHAEFDKGWTDKLPTNEDGTPLEPEMMSEEYYAAASAKRRGLGLVRFIGFLYRLNLLTGKMMFECFRRLMKDLTDSPSEETLESVVELLNTVGEQFETDSFRTGQATLEGSQLLDSLFGILDNIIQTAKISSRIKFKLIDIKELRHDKNWN", "B7": "Il10rb 20-220 N49Q/N102Q/N161Q/N199Q (Mus musculus, UniProt Q61190); sequence looked up; chain MIPPPEKVRMNSVNFKNILQWEVPAFPKTQLTFTAQYESYRSFQDHCKRTASTQCDFSHLSKYGDYTVRVRAELADEHSEWVQVTFCPVEDTIIGPPEMQIESLAESLHLRFSAPQIENEPETWTLKNIYDSWAYRVQYWKQGTNEKFQVVSPYDSEVLRNLEPWTTYCIQVQGFLLDQQRTGEWSEPICERTGNDEITPS", "B8": "CD226 19-254 (Homo sapiens, UniProt Q15762); sequence looked up; chain EEVLWHTSVPFAENMSLECVYPSMGILTQVEWFKIGTQQDSIAIFSPTHGMVIRKPYAERVYFLNSTMASNNMTLFFRNASEDDVGYYSCSLYTYPQGTWQKVIQVVQSDSFEAAVPSNSHIVSEPGKNVTLTCQPQMTWPVQAVRWEKIQPRQIDLLTYCNLVHGRNFTSKFPRQIVSNCSHGRWSVIVIPDVTVSDSGLYRCYLQASAGENETFVMRLTVAEGKTDNQYTLFVA", "B9": "SFN 1-231 (Homo sapiens, UniProt P31947); chain MERASLIQKAKLAEQAERYEDMAAFMKGAVEKGEELSCEERNLLSVAYKNVVGGQRAAWRVLSSIEQKSNEEGSEEKGPEVREYREKVETELQGVCDTVLGLLDSHLIKEAGDAESRVFYLKMKGDYYRYLAEVATGDDKKRIIDSARSAYQEAMDISKKEMPPTNPIRLGLALNFSVFHYEIANSPEEAISLAKTTFDEAMADLHTLSEDSYKDSTLIMQLLRDNLTLWT", "B10": "ARR1 235-296 (Arabidopsis thaliana, UniProt Q940D0-2); sequence looked up; chain LKKPRVVWSVELHQQFVAAVNQLGVEKAVPKKILELMNVPGLTRENVASHLQKYRIYLRRLG", "B11": "UBE2D3 (Homo sapiens, UniProt P61077); chain MALKRINKELSDLARDPPAQCSAGPVGDDMFHWQATIMGPNDSPYQGGVFFLTIHFPTDYPFKPPKVAFTTRIYHPNINSNGSICLDILRSQWSPALTISKVLLSICSLLCDPNPDDPLVPEIARIYKTDRDKYNRISREWTQKYAM", "B12": "NBN (Homo sapiens, UniProt O60934); chain MWKLLPAAGPAGGEPYRLLTGVEYVVGRKNCAILIENDQSISRNHAVLTANFSVTNLSQTDEIPVLTLKDNSKYGTFVNEEKMQNGFSRTLKSGDGITFGVFGSKFRIEYEPLVACSSCLDVSGKTALNQAILQLGGFTVNNWTEECTHLVMVSVKVTIKTICALICGRPIVKPEYFTEFLKAVESKKQPPQIESFYPPLDEPSIGSKNVDLSGRQERKQIFKGKTFIFLNAKQHKKLSSAVVFGGGEARLITEENEEEHNFFLAPGTCVVDTGITNSQTLIPDCQKKWIQSIMDMLQRQGLRPIPEAEIGLAVIFMTTKNYCDPQGHPSTGLKTTTPGPSLSQGVSVDEKLMPSAPVNTTTYVADTESEQADTWDLSERPKEIKVSKMEQKFRMLSQDAPTVKESCKTSSNNNSMVSNTLAKMRIPNYQLSPTKLPSINKSKDRASQQQQTNSIRNYFQPSTKKRERDEENQEMSSCKSARIETSCSLLEQTQPATPSLWKNKEQHLSENEPVDTNSDNNLFTDTDLKSIVKNSASKSHAAEKLRSNKKREMDDVAIEDEVLEQLFKDTKPELEIDVKVQKQEEDVNVRKRPRMDIETNDTFSDEAVPESSKISQENEIGKKRELKEDSLWSAKEISNNDKLQDDSEMLPKKLLLTEFRSLVIKNSTSRNPSGINDDYGQLKNFKKFKKVTYPGAGKLPHIIGGSDLIAHHARKNTELEEWLRQEMEVQNQHAKEESLADDLFRYNPYLKRRR", "note": "Compare with care: the assays were run in different laboratories. Non-standard residues stand in square brackets, D forms with d. No end group written: not given here.", "sequence of UniProt P06702 (whole entry, unmodified, looked up)": "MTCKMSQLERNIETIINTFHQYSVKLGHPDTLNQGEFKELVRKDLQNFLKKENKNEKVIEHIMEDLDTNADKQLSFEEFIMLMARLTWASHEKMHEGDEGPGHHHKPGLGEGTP", "sequence of UniProt P10081 (whole entry, unmodified, looked up)": "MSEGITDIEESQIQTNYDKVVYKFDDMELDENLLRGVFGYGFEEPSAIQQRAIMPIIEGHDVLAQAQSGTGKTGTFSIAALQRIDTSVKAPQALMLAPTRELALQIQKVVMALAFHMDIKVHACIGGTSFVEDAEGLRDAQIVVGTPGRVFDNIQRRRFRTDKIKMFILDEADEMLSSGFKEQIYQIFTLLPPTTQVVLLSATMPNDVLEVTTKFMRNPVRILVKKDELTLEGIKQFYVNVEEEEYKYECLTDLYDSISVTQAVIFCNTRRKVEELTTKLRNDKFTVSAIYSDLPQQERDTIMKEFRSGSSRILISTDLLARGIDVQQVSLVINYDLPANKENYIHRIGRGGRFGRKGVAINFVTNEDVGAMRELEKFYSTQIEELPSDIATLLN", "sequence of UniProt O60656 (whole entry, looked up)": "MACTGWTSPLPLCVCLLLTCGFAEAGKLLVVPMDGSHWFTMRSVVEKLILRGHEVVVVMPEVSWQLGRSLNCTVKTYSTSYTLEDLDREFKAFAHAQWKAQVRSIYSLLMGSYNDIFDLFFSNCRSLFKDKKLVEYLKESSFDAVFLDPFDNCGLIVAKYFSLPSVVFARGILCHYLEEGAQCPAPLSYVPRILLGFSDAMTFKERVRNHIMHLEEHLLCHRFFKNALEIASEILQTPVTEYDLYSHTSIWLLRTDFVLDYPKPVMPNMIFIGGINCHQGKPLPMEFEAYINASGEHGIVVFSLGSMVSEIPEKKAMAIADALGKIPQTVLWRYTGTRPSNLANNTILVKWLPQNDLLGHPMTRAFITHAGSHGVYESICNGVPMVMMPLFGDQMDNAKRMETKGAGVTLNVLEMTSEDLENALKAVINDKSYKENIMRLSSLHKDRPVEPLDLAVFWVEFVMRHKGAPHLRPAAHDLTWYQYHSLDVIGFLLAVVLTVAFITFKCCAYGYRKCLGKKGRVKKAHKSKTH", "sequence of UniProt Q80XZ4 (whole entry, unmodified, looked up)": "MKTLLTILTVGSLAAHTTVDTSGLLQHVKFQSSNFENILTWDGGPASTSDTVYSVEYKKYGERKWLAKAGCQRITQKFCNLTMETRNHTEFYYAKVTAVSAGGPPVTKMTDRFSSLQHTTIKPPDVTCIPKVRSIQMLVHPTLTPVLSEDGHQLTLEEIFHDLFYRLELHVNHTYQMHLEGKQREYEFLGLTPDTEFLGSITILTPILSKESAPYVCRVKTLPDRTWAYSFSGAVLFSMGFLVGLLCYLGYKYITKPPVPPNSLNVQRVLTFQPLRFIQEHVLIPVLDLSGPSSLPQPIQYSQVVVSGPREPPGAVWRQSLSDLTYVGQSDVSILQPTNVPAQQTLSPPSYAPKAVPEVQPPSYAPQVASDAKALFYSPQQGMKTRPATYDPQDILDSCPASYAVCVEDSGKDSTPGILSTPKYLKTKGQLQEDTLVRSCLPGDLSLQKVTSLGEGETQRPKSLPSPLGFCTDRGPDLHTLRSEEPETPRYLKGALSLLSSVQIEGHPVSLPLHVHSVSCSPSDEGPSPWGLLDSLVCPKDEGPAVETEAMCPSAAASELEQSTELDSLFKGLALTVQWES", "sequence of UniProt Q92692 (whole entry, looked up)": "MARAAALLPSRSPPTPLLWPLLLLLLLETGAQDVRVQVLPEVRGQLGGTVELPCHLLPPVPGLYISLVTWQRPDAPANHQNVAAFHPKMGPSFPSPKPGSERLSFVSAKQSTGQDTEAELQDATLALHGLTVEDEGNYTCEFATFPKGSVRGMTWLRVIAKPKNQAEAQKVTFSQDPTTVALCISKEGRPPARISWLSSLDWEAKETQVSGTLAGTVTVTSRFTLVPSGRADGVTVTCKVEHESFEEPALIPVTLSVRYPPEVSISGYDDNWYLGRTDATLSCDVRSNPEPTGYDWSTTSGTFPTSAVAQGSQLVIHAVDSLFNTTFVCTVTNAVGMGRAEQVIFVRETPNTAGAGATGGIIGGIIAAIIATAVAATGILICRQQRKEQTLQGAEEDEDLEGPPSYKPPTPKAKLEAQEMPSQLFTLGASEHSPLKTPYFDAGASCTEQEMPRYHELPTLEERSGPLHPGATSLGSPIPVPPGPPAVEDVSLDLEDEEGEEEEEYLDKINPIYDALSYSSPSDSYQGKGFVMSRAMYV", "sequence of UniProt P16157 (whole entry, looked up)": "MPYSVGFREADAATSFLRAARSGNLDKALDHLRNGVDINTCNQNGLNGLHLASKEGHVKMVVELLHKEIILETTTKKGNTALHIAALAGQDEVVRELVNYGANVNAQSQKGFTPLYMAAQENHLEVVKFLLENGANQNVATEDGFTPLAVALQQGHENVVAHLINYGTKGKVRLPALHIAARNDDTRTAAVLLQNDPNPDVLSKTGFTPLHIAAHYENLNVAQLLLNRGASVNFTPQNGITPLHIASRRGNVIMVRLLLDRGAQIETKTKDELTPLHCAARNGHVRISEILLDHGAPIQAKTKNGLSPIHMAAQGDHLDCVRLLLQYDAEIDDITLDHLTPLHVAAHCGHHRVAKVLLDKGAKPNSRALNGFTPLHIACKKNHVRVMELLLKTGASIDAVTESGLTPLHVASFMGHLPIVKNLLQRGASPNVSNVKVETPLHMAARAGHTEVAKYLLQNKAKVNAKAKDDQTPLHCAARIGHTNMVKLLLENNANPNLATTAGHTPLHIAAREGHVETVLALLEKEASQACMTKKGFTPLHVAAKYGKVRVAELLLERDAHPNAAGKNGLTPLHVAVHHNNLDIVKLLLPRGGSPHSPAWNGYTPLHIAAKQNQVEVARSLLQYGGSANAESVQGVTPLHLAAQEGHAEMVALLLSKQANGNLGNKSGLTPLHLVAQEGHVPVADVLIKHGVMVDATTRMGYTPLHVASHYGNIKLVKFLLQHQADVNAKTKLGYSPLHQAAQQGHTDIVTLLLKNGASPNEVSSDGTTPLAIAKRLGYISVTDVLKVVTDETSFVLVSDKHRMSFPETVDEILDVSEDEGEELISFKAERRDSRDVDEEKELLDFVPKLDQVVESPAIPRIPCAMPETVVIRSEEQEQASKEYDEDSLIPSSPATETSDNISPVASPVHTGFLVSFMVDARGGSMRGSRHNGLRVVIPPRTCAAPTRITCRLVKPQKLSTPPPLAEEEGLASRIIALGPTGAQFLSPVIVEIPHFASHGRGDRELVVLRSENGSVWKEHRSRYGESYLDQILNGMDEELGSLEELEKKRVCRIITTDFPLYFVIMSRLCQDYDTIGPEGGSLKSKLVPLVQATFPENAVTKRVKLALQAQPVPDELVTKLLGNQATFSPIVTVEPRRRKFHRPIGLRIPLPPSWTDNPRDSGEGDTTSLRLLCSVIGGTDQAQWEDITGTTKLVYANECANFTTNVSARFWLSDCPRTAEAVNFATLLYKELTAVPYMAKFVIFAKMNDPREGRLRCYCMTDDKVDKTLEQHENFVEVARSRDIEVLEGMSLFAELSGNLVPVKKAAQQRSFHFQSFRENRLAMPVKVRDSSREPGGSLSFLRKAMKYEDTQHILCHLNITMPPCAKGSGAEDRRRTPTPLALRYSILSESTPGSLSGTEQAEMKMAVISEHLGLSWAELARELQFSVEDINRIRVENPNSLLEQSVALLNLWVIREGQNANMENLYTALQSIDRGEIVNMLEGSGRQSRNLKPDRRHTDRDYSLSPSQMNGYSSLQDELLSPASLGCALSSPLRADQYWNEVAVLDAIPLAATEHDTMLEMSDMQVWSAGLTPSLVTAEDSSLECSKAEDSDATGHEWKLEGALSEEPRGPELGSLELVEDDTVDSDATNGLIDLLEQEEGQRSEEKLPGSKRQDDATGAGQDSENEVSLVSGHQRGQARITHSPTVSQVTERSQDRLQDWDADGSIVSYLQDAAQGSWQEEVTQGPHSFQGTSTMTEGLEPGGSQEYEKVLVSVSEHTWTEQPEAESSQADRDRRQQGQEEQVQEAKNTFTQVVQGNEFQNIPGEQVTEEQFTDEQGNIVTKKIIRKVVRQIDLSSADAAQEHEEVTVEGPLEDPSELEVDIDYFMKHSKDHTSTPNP"}
{"Substance": "B1 (Tiam1 393-1591)", "tested on": "ANK1, 125I label (Homo sapiens, UniProt P16157)", "test": "radioligand binding", "setting": "5 h, pH 7.4, 4 °C, NaCl 150 mM", "quantity": "binding", "value": "binds"}
{"Substance": "B2 (tatA I15C)", "tested on": "tatA (Escherichia coli, UniProt P69428)", "test": "EPR spectroscopy", "setting": "spin dilution, in detergent, with: MTSL label", "quantity": "binding", "value": "binds"}
{"Substance": "B3 (S100A8 1-93 C42S)", "tested on": "S100A9 1-114 C3S/H103A/H105A (Homo sapiens, UniProt P06702)", "test": "SEC", "setting": "without Ca2+", "quantity": "binding", "value": "binds"}
{"Substance": "B4 (RNase B unfolded, reduced)", "tested on": "MNL1/PDI1 C579S (Saccharomyces cerevisiae)", "test": "pull-down", "quantity": "binding", "value": "binds"}
{"Substance": "B5 (SPT15)", "tested on": "SAGA complex (Saccharomyces cerevisiae, UniProt P38811)", "test": "native gel or EMSA", "quantity": "binding", "value": "binds"}
{"Substance": "B6 (TIF4631 572-853 K590R)", "tested on": "TIF1 Q186C/E305C, Alexa488/Alexa546 labels (Saccharomyces cerevisiae, UniProt P10081)", "test": "conformation of molecule, smFRET", "quantity": "binding", "value": "binds"}
{"Substance": "UGT1A9 (Homo sapiens, UniProt O60656)", "tested on": "O=c1c(O)c(-c2ccccc2O)oc2cc(O)cc(O)c12", "test": "steady-state kinetics", "setting": "pH 7.4, 37 °C", "quantity": "Vmax", "value": "0.000246 µmol/min/mg"}
{"Substance": "B7", "tested on": "Il22ra1 16-228 N80D/N87D/T89Q (Mus musculus, UniProt Q80XZ4)", "test": "crystal structure", "quantity": "binding", "value": "binds"}
{"Substance": "B8 (CD226 19-254)", "tested on": "NECTIN2 Fc fusion ectodomain 32-360 (Homo sapiens, UniProt Q92692)", "test": "ELISA", "test system": "Fc fusion", "setting": "2 h, 37 °C, without Ca2+", "quantity": "binding", "value": "binds"}
{"Substance": "B9 (SFN 1-231)", "tested on": "MAPT full-length 2N4R, PKA phosphorylated (UniProt P10636-8)", "test": "cross-linking", "quantity": "binding", "value": "binds"}
{"Substance": "B10 (ARR1 235-296)", "tested on": "ARR1 31-158 (Arabidopsis thaliana, UniProt Q940D0-2)", "test": "crystal structure", "quantity": "binding", "value": "binds"}
{"Substance": "MPIALDHILNKFWILHYAGSGSSG (SPAM peptide F4A; peptide-RNA fusion)", "tested on": "CD274 ectodomain (Homo sapiens)", "test": "radioligand binding", "test system": "peptide", "setting": "1 h, 4 °C", "quantity": "binding", "value": "binds"}
{"Substance": "{VPS26(1–321)}-TAQPELYL[SeMet]NT[SeMet] (SLC11A2 549-560 L557M (Homo sapiens, UniProt P49281); SeMet = C[Se]CC[C@H](N)C(=O)O; sequence looked up)", "tested on": "VPS26A fragment (Homo sapiens)", "test": "crystal structure", "test system": "peptide", "quantity": "binding", "value": "binds"}
{"Substance": "B11 (UBE2D3)", "tested on": "T1, Nedd4 HECT domain", "test": "SPR", "quantity": "binding", "value": "binds"}
{"Substance": "MPIFADHILNKFWILHYAGSGSSG (SPAM peptide L5A; peptide-RNA fusion)", "tested on": "CD274 ectodomain (Homo sapiens)", "test": "radioligand binding", "test system": "peptide", "setting": "1 h, 4 °C", "quantity": "binding", "value": "binds"}
{"Substance": "B12 (NBN)", "tested on": "RBBP8, phosphorylated (Homo sapiens, UniProt Q99708)", "test": "pull-down", "quantity": "binding", "value": "binds"}
{"note": "Repeated from above:"}
{"Substance": "B9 (SFN 1-231)", "tested on": "MAPT full-length 2N4R, PKA phosphorylated (UniProt P10636-8)", "test": "cross-linking", "quantity": "binding", "value": "binds"}
{"Substance": "{VPS26(1–321)}-TAQPELYL[SeMet]NT[SeMet] (SLC11A2 549-560 L557M (Homo sapiens, UniProt P49281); SeMet = C[Se]CC[C@H](N)C(=O)O; sequence looked up)", "tested on": "VPS26A fragment (Homo sapiens)", "test": "crystal structure", "test system": "peptide", "quantity": "binding", "value": "binds"}
